Measured values of several laboratories.
A part holds a random share of what one study measured. Positions count from the first letter of the parent shown.

Series 1
Target: CCNB3, cyclin fold, Cln2 fusion (human)
Method: yeast growth competition, sequencing
Medium: yeast
Setting: weak parent motif
Reference: not given
Direction: higher = stronger binding
Starting sequence: ORC1 docking peptide (human); PRARKRLELGNLG; partner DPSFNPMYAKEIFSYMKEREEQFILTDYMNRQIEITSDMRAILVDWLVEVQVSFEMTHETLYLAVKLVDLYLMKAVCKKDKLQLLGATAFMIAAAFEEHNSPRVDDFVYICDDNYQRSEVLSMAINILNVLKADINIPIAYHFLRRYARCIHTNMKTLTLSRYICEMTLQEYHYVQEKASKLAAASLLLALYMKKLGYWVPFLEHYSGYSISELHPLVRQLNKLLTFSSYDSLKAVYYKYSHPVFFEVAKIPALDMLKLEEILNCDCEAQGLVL
| Variant | normalised enrichment score |
| --- | --- |
| PRARKRLELGKLG [N11K] | 0.0243 |
| PRARKRLELGNWG [L12W] | 0.401 |
| PRARKRLELGMLG [N11M] | 1.07 |
| PRARKRLELGPLG [N11P] | 0.249 |
| PRLRKRLELGNLG [A3L] | -0.211 |
| PRARKELELGNLG [R6E] | 0.208 |
| PQARKRLELGNLG [R2Q] | 0.117 |
| PRARKQLELGNLG [R6Q] | 0.0547 |
| PRARKRLELGNMG [L12M] | 0.554 |
| PRARKRLELGRLG [N11R] | 0.177 |
| PRARKRLWLGNLG [E8W] | 0.276 |
| PRARKSLELGNLG [R6S] | -0.112 |
| PRAHKRLELGNLG [R4H] | 0.571 |
| FRARKRLELGNLG [P1F] | 0.103 |
| PRARKGLELGNLG [R6G] | 0.727 |
| WRARKRLELGNLG [P1W] | 0.551 |
| PRARKPLELGNLG [R6P] | 0.0601 |
| PAARKRLELGNLG [R2A] | 0.186 |
| PRAIKRLELGNLG [R4I] | -0.0502 |
| PRTRKRLELGNLG [A3T] | 0.23 |
| PRHRKRLELGNLG [A3H] | 0.248 |
| PRARKRLYLGNLG [E8Y] | 0.0818 |
| PRANKRLELGNLG [R4N] | 0.137 |
| PRARKRLELGNGG [L12G] | -0.0883 |
| PRARKHLELGNLG [R6H] | -0.0844 |

Series 2
Target: Histone acetyltransferase KAT6A, winged helix 1, GST fusion (KAT6A, Homo sapiens, UniProt Q92794, residues 1-85)
Method: protein binding microarray
Molecule type: double-stranded DNA, one strand shown
Medium: in vitro
Concentration: not given
Setting: 8-mer, flanks averaged, mean of 2 arrays, mostly near background
Reference: not given
Direction: higher = stronger binding
Construct (chain): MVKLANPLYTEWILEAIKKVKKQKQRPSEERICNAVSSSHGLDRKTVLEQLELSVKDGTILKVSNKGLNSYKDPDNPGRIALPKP
| Oligonucleotide | E-score |
| --- | --- |
| GTTGGCAA | -0.262 |
| ACGTGAGC | -0.0347 |
| CGCGCATA | 0.383 |
| GCGGTACC | 0.4 |
| ACCCAATA | -0.0974 |
| CCGGGTCC | 0.329 |
| GTACGTGA | -0.00844 |
| CAGGCCCG | 0.252 |
| ACATCCGT | 0.13 |
| CATAATAC | -0.1 |
| CCCCACTA | -0.173 |
| CGCACAAA | 0.0515 |
| GACGTTAC | 0.0455 |
| GGGGCACA | -0.106 |
| GACGCGAC | 0.297 |
| GACGTCGC | 0.187 |
| TGTACGAA | -0.0231 |

Series 3
Target: ABI1, truncated, D143A, DHFR fusion (Arabidopsis thaliana)
Method: DHFR PCA, deep sequencing
Medium: yeast
Setting: methotrexate growth selection, single substitutions
With: (+)-ABA 0.032 µM
Reference: wild-type fitted maximum
Direction: higher = stronger binding
Starting sequence: PYL1, truncated, DHFR fusion (Arabidopsis thaliana); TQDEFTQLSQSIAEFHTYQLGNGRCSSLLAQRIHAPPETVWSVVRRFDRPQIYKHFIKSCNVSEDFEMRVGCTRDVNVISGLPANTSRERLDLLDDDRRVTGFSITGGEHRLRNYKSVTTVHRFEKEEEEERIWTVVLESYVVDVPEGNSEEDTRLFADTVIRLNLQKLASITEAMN
| Variant | relative binding score [%] |
| --- | --- |
| E14I | -6.18 |
| V142D | 2.19 |
| T120Y | -1.93 |
| D3S | 19 |
| D92K | 2.09 |
| R45E | -2.83 |
| H34R | 25.5 |
| F5T | 4.67 |
| I57N | -4.58 |
| P36G | 0.646 |
| Q51A | -0.52 |
| H110K | 28.4 |
| K54M | -7.76 |
| V118I | 19.8 |
| P146E | 2.27 |
| E89M | 0.961 |

Series 4
Target: Sal-like protein 4, full length isoform A (SALL4, Homo sapiens, UniProt Q9UJQ4, residues 1-1053)
Chain of UniProt Q9UJQ4 (whole entry, looked up): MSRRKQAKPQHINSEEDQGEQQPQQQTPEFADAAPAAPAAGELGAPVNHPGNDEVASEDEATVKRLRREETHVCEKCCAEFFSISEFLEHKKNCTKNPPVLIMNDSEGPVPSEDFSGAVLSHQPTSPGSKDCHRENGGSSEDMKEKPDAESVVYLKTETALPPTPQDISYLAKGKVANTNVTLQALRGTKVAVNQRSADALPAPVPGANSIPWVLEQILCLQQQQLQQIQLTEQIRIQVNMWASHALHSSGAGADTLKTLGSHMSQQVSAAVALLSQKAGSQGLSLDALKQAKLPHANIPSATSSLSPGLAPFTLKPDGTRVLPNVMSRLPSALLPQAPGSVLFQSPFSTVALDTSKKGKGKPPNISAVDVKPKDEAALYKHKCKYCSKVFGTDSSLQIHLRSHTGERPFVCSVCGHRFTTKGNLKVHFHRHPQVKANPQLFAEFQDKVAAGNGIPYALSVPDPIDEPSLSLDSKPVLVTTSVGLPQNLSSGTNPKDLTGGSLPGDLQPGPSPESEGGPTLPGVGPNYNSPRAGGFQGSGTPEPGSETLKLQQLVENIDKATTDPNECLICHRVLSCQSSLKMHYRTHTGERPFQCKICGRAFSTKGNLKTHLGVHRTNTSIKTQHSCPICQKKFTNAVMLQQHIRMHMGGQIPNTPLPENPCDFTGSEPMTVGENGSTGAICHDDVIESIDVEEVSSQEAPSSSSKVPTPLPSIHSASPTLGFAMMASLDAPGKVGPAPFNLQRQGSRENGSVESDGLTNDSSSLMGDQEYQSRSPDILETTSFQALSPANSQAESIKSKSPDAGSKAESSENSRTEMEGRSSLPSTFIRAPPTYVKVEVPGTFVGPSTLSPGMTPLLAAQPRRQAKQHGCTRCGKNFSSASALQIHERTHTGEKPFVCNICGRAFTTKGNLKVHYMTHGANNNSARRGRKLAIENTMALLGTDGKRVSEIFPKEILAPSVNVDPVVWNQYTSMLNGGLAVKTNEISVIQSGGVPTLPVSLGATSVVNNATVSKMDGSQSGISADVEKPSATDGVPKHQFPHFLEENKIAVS
Method: universal PBM
Molecule type: double-stranded DNA, one strand shown
Medium: in vitro
Concentration: 600 nM
Setting: 8-mer, flanks averaged, mean of replicates
Direction: higher = stronger binding
| Oligonucleotide | E-score |
| --- | --- |
| AGTCAAGC | -0.223 |
| AGCATTTA | 0.0864 |
| AATGTTTC | 0.233 |
| AAAACCCC | -0.175 |
| GCGAGTGA | -0.156 |
| ACGCTCCA | -0.0899 |
| ATCAGTCC | -0.294 |
| GGACTCAA | -0.217 |
| AACATGGA | 0.254 |
| CTGTGTCA | -0.0722 |
| ATCGCGAC | -0.0795 |
| CCTGCCTA | -0.14 |
| GATTCCAA | -0.00354 |
| GCGACCAC | -0.269 |
| ACAGACGA | -0.0925 |
| CATAACGG | 0.0825 |
| CATCTCAG | -0.0146 |
| GCTTTATA | 0.157 |
| ACTCTCAA | 0.137 |
| ATTTTTGA | 0.313 |
| ACAGTGGT | -0.0679 |
| AAGCAAGA | 0.139 |

Series 5
Target: PABPC1L2, full length, GST fusion (mouse, UniProt A0ABA7IW68)
Method: RNAcompete
Molecule type: RNA
Medium: in vitro
Concentration: 20 nM
Setting: 7-mer, probes averaged, single round
Reference: mean of 7-mers
Direction: higher = stronger binding
Construct (chain): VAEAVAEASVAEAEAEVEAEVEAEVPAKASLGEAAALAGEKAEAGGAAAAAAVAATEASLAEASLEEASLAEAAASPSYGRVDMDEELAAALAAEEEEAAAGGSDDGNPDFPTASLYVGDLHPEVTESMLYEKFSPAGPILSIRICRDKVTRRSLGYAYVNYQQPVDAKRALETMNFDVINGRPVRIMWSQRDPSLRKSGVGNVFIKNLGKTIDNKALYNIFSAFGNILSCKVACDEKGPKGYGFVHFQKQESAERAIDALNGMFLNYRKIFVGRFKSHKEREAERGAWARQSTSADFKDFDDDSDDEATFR
| Oligonucleotide | 7-mer Z-score |
| --- | --- |
| CCAAAUG | 0.0895 |
| CUCCCCC | -0.496 |
| UCGUGUG | -0.28 |
| ACUGAAA | 0.602 |
| GACCGCG | -0.146 |
| GCAGACU | 0.108 |
| AAAUCCU | 0.265 |
| CGUGAAC | -0.327 |
| ACAGCCC | -0.184 |
| UCGUCUC | -0.581 |
| GGAUUUU | -0.15 |
| CGAAACC | -0.139 |
| CCACUUC | -0.18 |
| UUAGAGU | -0.0645 |
| GUUCAUG | -0.162 |
| GCCAUCC | -0.184 |
| GAAUUAG | -0.148 |
| CUGCUAU | -0.365 |
| UCGGGAC | 0.216 |
| GUAAGAG | -0.0971 |
| GAGAACG | 0.0932 |
| UCCAUCC | -0.51 |
| AUAUGCU | -0.144 |
| CGUCCUC | -0.4 |

Series 6
Target: JUN, bZIP domain (human)
Method: DHFR protein complementation
Medium: yeast
Setting: single substitutions, most at no-binding floor
Reference: wild-type JUN-FOS pair
Direction: higher = stronger binding
Starting sequence: JUN, bZIP domain (human); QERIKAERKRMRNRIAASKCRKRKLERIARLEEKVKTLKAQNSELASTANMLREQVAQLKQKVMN; partner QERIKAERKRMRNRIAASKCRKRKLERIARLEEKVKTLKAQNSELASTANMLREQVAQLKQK
| Variant | binding fitness |
| --- | --- |
| E33M | -0.316 natural log |
| A46I | -0.124 natural log |
| L38Y | -1.17 natural log |
| N42L | -1.18 natural log |
| V35L | -0.413 natural log |
| E54Y | -0.698 natural log |
| Q58C | -0.248 natural log |
| N42G | -0.59 natural log |
| E33A | -0.23 natural log |
| T48L | -0.199 natural log |
| V56Y | -0.583 natural log |
| M51W | -0.42 natural log |
| K34G | -0.999 natural log |
| T37F | -0.102 natural log |
| L52N | -1.11 natural log |
| E54C | -0.711 natural log |
| A29M | -0.662 natural log |
| E54G | -0.41 natural log |
| Q55Y | -0.803 natural log |
| E33T | -0.472 natural log |
| V35C | -0.394 natural log |
| S47G | -0.306 natural log |
| I28C | -0.603 natural log |
| S47L | -0.226 natural log |
| V56F | -0.679 natural log |

Other studies, line by line
| Substance | target | assay | system | conditions | how to read | quantity | result |
| --- | --- | --- | --- | --- | --- | --- | --- |
| PhoQ, residues 284 288 289 292 302 303 TLASMF | PhoP, residues 12 14 15 18 19 VHSCL (Escherichia coli, UniProt P23836) | Sort-seq, item: YFP reporter | E. coli | PhoQ-PhoP variant library, with: 10 µM Mg2+ | reference: high Mg2+ state, higher = stronger signaling | fold induction | 1.19 |
